Assay results of several laboratories.
Each line is one published result; not all experiments were run side by side. ± gives the spread as reported. Values after ≈ are worked out from the molar mass of the structure shown.

CC1(C)S[C@@H]2[C@H](NC(=O)[C@H](N)c3ccccc3)C(=O)N2[C@H]1C(=O)O  MIC (Salmonella enterica; 20 h, pH 7): 2 µg/mL (≈ 5.72 µM)
CC(O)(CS(=O)(=O)c1ccc(F)cc1)C(=O)Nc1ccc(C#N)c(C(F)(F)F)c1 (stereo not drawn)  inhibition (THP-1; pyroptotic LDH release; 2 µM, 40 min, together with: LPS then nigericin): -18.1%
CC[C@H](C)[C@@H]1NC(=O)[C@@H]2CCCN2C(=O)[C@H](CC(C)C)NC(=O)[C@H](CC(C)C)NC(=O)CNC(=O)[C@@H](NC(=O)[C@@H](NC(=O)[C@H](CC(=O)O)NC(=O)CNC(=O)[C@@H](NC(=O)[C@H](C)NC(=O)CNC(=O)[C@H](CCCCN)NC(=O)[C@H](CC(C)C)NC(=O)[C@H](CC(C)C)NC(=O)[C@H](CCCCN)NC(=O)CNC(=O)[C@@H](NC(=O)[C@@H](N)CC(C)C)C(C)C)C(C)C)C(C)C)CSSC[C@@H](C(=O)O)NC1=O  log2 fold change (RNA-seq, item: Adamts5; mouse, traumatic brain injury model, frontal cortex and hippocampus; dose not given; baseline: TBI alone): -1.13
C=CCNCCc1c[nH]c2cccc(O)c12.C=CCNCCc1c[nH]c2cccc(O)c12.O=C(O)/C=C/C(=O)O  body temperature change (C57BL/6J mice; subcutaneous, 10 mg/kg; baseline: pre-session baseline): -1.1 ± 0.2 °C
CCCCCOC(=O)Nc1nc(=O)n([C@@H]2O[C@H](C)[C@@H](O)[C@H]2O)cc1F  maximum inhibition (human coronavirus OC43; virus-induced cell killing; MRC-5; maximum over 10 doses): 0%
C[C@]12CC[C@H]3[C@@H](CC=C4CC(O)CC[C@@]43CO)[C@@H]1CCC2O (stereo partly drawn)  bridging fibrosis (Sirius Red staining; rat, GAN diet-induced MASH, liver; dose not given; baseline: GAN diet plus vehicle): decreased
C=CC[C@@H]1c2ccc(OC)c(OC)c2CN2CCc3cc4c(cc3[C@H]12)OCO4  relative wound size (Staphylococcus aureus; P2rx7+/+ mice, skin wound infection; dose not given, day 1; baseline: day 0): 1.24
OC[C@H]1O[C@@H](c2ccc(F)c(Cc3cc4ccccc4s3)c2)[C@H](O)[C@@H](O)[C@@H]1O  maximum inhibition (human coronavirus OC43; virus-induced cell killing; MRC-5; screen): 18.6%
CC(C)(C)NCCc1c[nH]c2cccc(O)c12.CC(C)(C)NCCc1c[nH]c2cccc(O)c12.O=C(O)/C=C/C(=O)O  body temperature change (C57BL/6J mice; subcutaneous, 0.3 mg/kg; baseline: pre-session baseline): 0.1 ± 0.2 °C
COc1cc(CCNCc2ccccc2OC)c(OC)cc1Br  loss of potency (5-HT2C receptor V102L, human; Gq dissociation, BRET; baseline: wild type): no effect
CN(C)CCCn1cc(C2=C(c3c[nH]c4ccccc34)C(=O)NC2=O)c2ccccc21  maximum inhibition (human coronavirus OC43; virus-induced cell killing; MRC-5; screen): 3.38%
COc1c(CCC[P+](c2ccccc2)(c2ccccc2)c2ccccc2)cc2c(c1OC)OCO2.[I-]  TGI (OVCAR-5; SRB): -4.09 log M
N.N.[Cl][Pt][Cl]  IC50 (Cal27CisR; cell viability, MTT; 48 h): 63500 nM
Oc1ccccc1-c1nc(-c2cccs2)c(-c2cccs2)[nH]1  cytotoxicity efficacy (Vero-E6; CellTiter-Glo ATP; concentration not given, 72 h, retest 8-point duplicates; baseline: DMSO 0%, hyamine -100%, more negative, more toxic): -23.8%
CC(=O)Oc1ccccc1C(=O)O  maximum inhibition (human coronavirus OC43; virus-induced cell killing; MRC-5; screen): 22.6%
CCCCCc1cc(O)c2c(c1)OC(C)(C)[C@@H]1CCC(C)=C[C@@H]21  Progressive motility (capacitated human sperm; CASA; 10 µM, 1 h): decreased
N=C(N)c1ccc(OCc2ccc(Br)cc2COc2ccc(C(=N)N)cc2)cc1  MIC of compound in combination (Escherichia coli; checkerboard; BW25113; concentration not given, lowest-FICI combination, together with: rifampicin): 6.25 µg/mL
CCCCNCCc1c[nH]c2cccc(O)c12.O=C(O)/C=C/C(=O)O  body temperature change (C57BL/6J mice; subcutaneous, 0.3 mg/kg; baseline: pre-session baseline): -0.2 ± 0.1 °C
O=C(/C=C/c1cccnc1)NCCCCC1CCN(C(=O)c2ccccc2)CC1  maximum inhibition (human coronavirus OC43; virus-induced cell killing; MRC-5; screen): 53.9%
CCCCC1(CCCC)CN(c2ccccc2)c2cc(SC)c(OCC(=O)N[C@@H](C(=O)NCC(=O)O)c3ccccc3)cc2S(=O)(=O)C1  serum LDL-C (item: LDL cholesterol; human, serum; 10 mg once daily, day 8): 92.3 mg/dL
CCc1ccc(Sc2cc(C(=O)NCCCN3CCC(C)CC3)c3ccccc3n2)cc1  cytotoxicity efficacy (Vero-E6; CellTiter-Glo ATP; concentration not given, 72 h, first round 5-point; baseline: DMSO 0%, hyamine -100%, more negative, more toxic): -18.6%
COc1c(C)c2c(c(O)c1C/C=C(\C)CCC(=O)O)C(=O)OC2  IC50 (OVCAR-4; cell proliferation): 977 nM
C=CC(=O)Nc1cccc(Oc2nc(Nc3ccc(N4CCN(C)CC4)cc3OC)ncc2Cl)c1  maximum inhibition (human coronavirus OC43; virus-induced cell killing; MRC-5; maximum over 10 doses): 0%
COc1ccc2c(c1)[C@]13CCCC[C@@H]1[C@H](C2)N(C)CC3  inhibition (THP-1; pyroptotic LDH release; 2 µM, 40 min, together with: LPS then nigericin): -19.5%
CCNCCc1c[nH]c2cccc(O)c12.CCNCCc1c[nH]c2cccc(O)c12.O=C(O)CCC(=O)O  body temperature change (C57BL/6J mice; subcutaneous, 0.1 mg/kg; baseline: pre-session): -0.5 ± 0.2 °C
CC(C)N1CCC(NC2CCN(c3cccc(-c4cc5cc(F)ccc5[nH]4)c3)CC2)CC1  GI50 (TK-10): 1710 nM
O=NN(CCCl)C(=O)NC1CCCCC1  maximum inhibition (human coronavirus OC43; virus-induced cell killing; MRC-5; screen): 4.61%
Nc1ncnc2c1ncn2[C@@H]1O[C@@H]2COP(=O)(O)O[C@H]3[C@@H](O)[C@H](n4cnc5c(=O)[nH]cnc54)O[C@@H]3COP(=O)(O)O[C@H]2[C@H]1O  pathway fold enrichment (HFF-1; RNA sequencing Reactome analysis, item: Reactome R-HSA-5669034; together with: West Nile virus infection; baseline: West Nile virus infected cells, upregulated pathway): 6.58
CCCNCCc1c[nH]c2cccc(O)c12.CCCNCCc1c[nH]c2cccc(O)c12.O=C(O)/C=C/C(=O)O  body temperature change (C57BL/6J mice; subcutaneous, 1 mg/kg; baseline: pre-session baseline): -0.2 ± 0.2 °C
COc1ccc(CCC2CCCC(CCc3ccc(OC)cc3)N2C[C@@H](O)CO)cc1.Cl (stereo in doubt)  DOPAC overflow (rat striatal slices; 3 µM, 30 min, no methamphetamine): 155 ± 48.6 pg/30 mL/mg
Nc1ccn([C@@H]2C=C(CO)[C@@H](O)[C@H]2O)c(=O)n1  maximum inhibition (human coronavirus OC43; virus-induced cell killing; MRC-5; screen): 13%
CC(C)NCCc1c[nH]c2cccc(O)c12.O=C(O)/C=C/C(=O)O  body temperature change (C57BL/6J mice; subcutaneous, 0.1 mg/kg; baseline: pre-session baseline): -0.3 ± 0.2 °C
COc1cc(CCNC(C)c2ccccc2O)c(OC)cc1Br.Cl (stereo not drawn)  fold gain in potency (5-HT2C V102L mutant, human; Gq dissociation, BRET; baseline: wild-type 5-HT2C): 10 fold
COc1cc(CCC[P+](c2ccccc2)(c2ccccc2)c2ccccc2)c(OC)c2c1OCO2.[I-]  LC50 (OVCAR-4; SRB): > -4 log M
O=C(O)/C=C/C(=O)O.Oc1cccc2[nH]cc(CCNC3CCCCC3)c12  body temperature change (C57BL/6J mice; subcutaneous, 0.03 mg/kg; baseline: pre-session baseline): -0.1 ± 0.1 °C
CN1CCN(S(=O)(=O)c2cc([N+](=O)[O-])ccc2N(CCOS(C)(=O)=O)CCOS(C)(=O)=O)CC1  event-free survival (NSG mice, sample CF PDX; intraperitoneal, 25 mg/kg weekly x3): 166 days

For quick reference, copied from above:
C=CC[C@@H]1c2ccc(OC)c(OC)c2CN2CCc3cc4c(cc3[C@H]12)OCO4  relative wound size (Staphylococcus aureus; P2rx7+/+ mice, skin wound infection; dose not given, day 1; baseline: day 0): 1.24
C[C@]12CC[C@H]3[C@@H](CC=C4CC(O)CC[C@@]43CO)[C@@H]1CCC2O (stereo partly drawn)  bridging fibrosis (Sirius Red staining; rat, GAN diet-induced MASH, liver; dose not given; baseline: GAN diet plus vehicle): decreased
O=C(O)/C=C/C(=O)O.Oc1cccc2[nH]cc(CCNC3CCCCC3)c12  body temperature change (C57BL/6J mice; subcutaneous, 0.03 mg/kg; baseline: pre-session baseline): -0.1 ± 0.1 °C
CN(C)CCCn1cc(C2=C(c3c[nH]c4ccccc34)C(=O)NC2=O)c2ccccc21  maximum inhibition (human coronavirus OC43; virus-induced cell killing; MRC-5; screen): 3.38%
CC1(C)S[C@@H]2[C@H](NC(=O)[C@H](N)c3ccccc3)C(=O)N2[C@H]1C(=O)O  MIC (Salmonella enterica; 20 h, pH 7): 2 µg/mL (≈ 5.72 µM)
CC(C)NCCc1c[nH]c2cccc(O)c12.O=C(O)/C=C/C(=O)O  body temperature change (C57BL/6J mice; subcutaneous, 0.1 mg/kg; baseline: pre-session baseline): -0.3 ± 0.2 °C
